Published values of several laboratories.
A part holds a random share of what one study measured.

Set 1 — cell line: HEK-293T/ACE2; read-out: pseudovirus infection; organism: VSV pseudotyped with SARS-CoV-2 spike; tested at: 10 µM; time: 16 h; reference: vehicle-treated
For `CC1=C(/C=C/C(C)=C/C=C/C(C)=C\C(=O)O)C(C)(C)CCC1`, the GFP-positive cells was 56.1%.
`CC1(C)O[C@@H]2C[C@H]3[C@@H]4C[C@H](F)C5=CC(=O)C=C[C@]5(C)[C@H]4[C@@H](O)C[C@]3(C)[C@]2(C(=O)CO)O1` gave a GFP-positive cells of 73%.
`CCn1cc(C(=O)O)c(=O)c2cc(F)c(N3CCNC(C)C3)c(F)c21` (stereo not drawn) gave a GFP-positive cells of 78%.
With `CCOc1nc2cccc(C(=O)OC(C)OC(=O)OC3CCCCC3)c2n1Cc1ccc(-c2ccccc2-c2nnn[nH]2)cc1` (stereo not drawn) the GFP-positive cells was 5.52%.

Set 2 — read-out: enzyme activity; mode: inhibitor; tested at: 20 µM; setting: hit confirmation
Target: Replicase polyprotein 1ab, main protease (rep, Severe acute respiratory syndrome coronavirus 2, UniProt P0DTD1)
The inhibition of `CN(C)/N=N/c1ccc(C(=O)O)cc1` is reported as 20.7%.
`NCC1(CC(=O)O)CCCCC1` gave an inhibition of -19.5%.
`CCCCCCNC(=O)n1cc(F)c(=O)[nH]c1=O` gave an inhibition of 111%.
`NC(=O)c1cc[n+](CC2=C(C(=O)O)N3C(=O)[C@@H](NC(=O)Cc4cccs4)[C@H]3SC2)cc1` gave an inhibition of 9.4%.

Set 3 — method: EMSA with sequencing; form: double-stranded DNA, one strand shown; matrix: in vitro; tested at: 10 and 20 nM; reference: negative control set to 0; reading: higher = stronger binding
Target: Hepatocyte nuclear factor 3-alpha (Foxa1, Mus musculus, UniProt P35582, residues 1-468, full length assumed)
Setting: whole designed probe, mean of two concentrations, ends assumed
Residues (chain): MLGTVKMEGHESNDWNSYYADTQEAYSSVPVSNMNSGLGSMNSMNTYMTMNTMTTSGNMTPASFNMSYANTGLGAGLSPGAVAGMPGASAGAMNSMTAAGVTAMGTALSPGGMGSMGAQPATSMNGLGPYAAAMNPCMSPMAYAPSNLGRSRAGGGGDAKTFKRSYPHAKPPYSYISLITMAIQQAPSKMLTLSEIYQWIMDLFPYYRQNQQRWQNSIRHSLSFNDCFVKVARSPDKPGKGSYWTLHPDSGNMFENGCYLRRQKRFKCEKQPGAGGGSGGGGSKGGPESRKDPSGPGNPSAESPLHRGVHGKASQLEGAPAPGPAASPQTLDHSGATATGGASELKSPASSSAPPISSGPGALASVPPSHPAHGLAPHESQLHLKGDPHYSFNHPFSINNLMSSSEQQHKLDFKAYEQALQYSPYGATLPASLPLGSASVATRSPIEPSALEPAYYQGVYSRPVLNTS
For `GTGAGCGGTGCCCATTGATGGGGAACTAAAACCCGGTGACTCTTTTGCACATTTAATTTGAGAACAGGTGAACTAGCTAGATGGATGTTCTCCAGGAAACACTTCTAAGGTGAAAAAGATGTTGACTCACGCTTTCTCCTGATCTGGCCACCAGGTGGCACTGACAAGCTGGGGCGACTTCGTTGTGGGCAGAGGCGGGACAGATAATTAGGCAGCCTTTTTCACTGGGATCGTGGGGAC`, “normalised bound fraction” read -0.00482 ratio.
`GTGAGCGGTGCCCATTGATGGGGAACCCCTCATCCTGGGTGTCGGGGTGGGAGGTGTTCTCATCATGAATGGGAGGCGTACCCAGATCCAGCTCTGCCTTTTTTTAACCAAACCAGAGTGTAAACAAATGGCTGTTAAGTGACTCACCATCGACATAGCAAGATATGATACATGCCAGGAGAGAAAAAGAAAGTGCTGATGGAAAAATAATCTCATTAGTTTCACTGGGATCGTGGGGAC`: “normalised bound fraction” 0.329 ratio.
`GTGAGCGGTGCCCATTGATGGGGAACATCTTCCCCCTCTTCCTTGCCCCACCAGCTCACCTTCCCGGGTTATTTGCAGATAGGAAAATAAATAAAGCCGGCATTGTGCCTCCCTTAGATTCCGCAAACTGCTGTTTGCTCTGGATGAATCATGGTCCTTTGGCGACGCCAGGCTCCGGGAGAGCAAAGCACCGTGTCAGGGCCATGATCCGGGGTGGCCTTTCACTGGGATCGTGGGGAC`: “normalised bound fraction” 0.35 ratio.
Under “normalised bound fraction”, `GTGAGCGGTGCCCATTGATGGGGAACAACACCAAACATAATTTAAAGATTTAATATACAAGTGTCTTGTTAGAAATAAAAACTTTCAGGGGGGTAATAAGGAAAAGAGATTGAATGCAAAGTAAACAAGCAATTTTGCTAAACAGTGACAATTACATCAACCTGACTTAAAGCAAAAGACTTTGTTTGCTGTGTGTATATATATATACCTACAGATATATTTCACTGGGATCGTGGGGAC` is recorded as 0.494 ratio.
`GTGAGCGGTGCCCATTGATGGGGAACCAGCCTGCAGTGCGCTCAGTTAAACAATTCCAAATCAAGGAATTTTGTCTGATACAAGGAATTTGGGGTGTGTTTTCCTAACATGCACCCTGGGTAAATAGACTGCATTTCCTGACCCAGGGGGGGGGGGCCTGAAGCCAATATGCATTGCGGCCACAAGGTGGCGCGTCTGGGCCTGGCAAACCCCTGTGCTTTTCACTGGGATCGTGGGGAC` — result for “normalised bound fraction”: 0.211 ratio.

Set 4 — method: RNA Bind-n-Seq; form: RNA; matrix: in vitro; tested at: 200 nM; setting: whole 134-nt RNA, ends assumed; together with: 150 mM LiCl; reference: input library; reading: higher = stronger binding; library: 7-deaza-guanosine replaces G
Target: Ras GTPase-activating protein-binding protein 1, full length (G3BP1, Homo sapiens, UniProt Q13283)
Sequence of UniProt Q13283 (whole entry, looked up): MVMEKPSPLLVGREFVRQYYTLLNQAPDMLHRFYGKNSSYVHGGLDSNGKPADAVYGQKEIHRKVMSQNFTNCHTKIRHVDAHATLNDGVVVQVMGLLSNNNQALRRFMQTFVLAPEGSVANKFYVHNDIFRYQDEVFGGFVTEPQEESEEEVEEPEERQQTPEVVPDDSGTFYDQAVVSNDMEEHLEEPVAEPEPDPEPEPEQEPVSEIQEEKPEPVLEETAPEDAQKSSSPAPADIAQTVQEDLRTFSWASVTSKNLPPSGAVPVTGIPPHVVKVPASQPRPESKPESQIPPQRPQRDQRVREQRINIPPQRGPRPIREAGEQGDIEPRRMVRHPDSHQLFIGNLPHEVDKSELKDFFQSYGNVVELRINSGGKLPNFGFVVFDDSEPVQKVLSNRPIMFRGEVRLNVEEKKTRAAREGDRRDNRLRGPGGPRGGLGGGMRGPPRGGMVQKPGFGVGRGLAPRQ
With `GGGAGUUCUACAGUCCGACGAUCUGGCCAUGGUGGCAUGCGGGGAGGAAGAGGUGGCCUCAUGGAUCGUGGUGGUCCCGGUGGAAUGUUCAGAGGUGGCCGUGGUGGAGACAGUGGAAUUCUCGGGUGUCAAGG` the log2 enrichment was 0.271.
For `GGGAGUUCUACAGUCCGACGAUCAGUCCUGUGCUACACAUCGUAUGUACCGAAUCGGGGUUUUGGUUUUGGGUUUUGGGGAAAGUAUUAUGUUACGCCGUUCGGAUCUGCACUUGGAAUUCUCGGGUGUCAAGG`, the log2 enrichment was -0.119.
For `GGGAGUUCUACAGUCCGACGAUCCUCAAGUCCUGUGCUACACAUCGUAUGUACCGAAUCGGAAGGGGAAGGAAGGGAAAGUAUUAUGUUACGCCGUUCGGAUCUGCACUUCCAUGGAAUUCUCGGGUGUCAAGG`, the log2 enrichment was -0.134.
`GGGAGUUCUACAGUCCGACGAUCUGGGAGUUGGAUUUUGUUUAUUUUUUUAGCUCAUUUCCAGGGGUGGGAAUUUUUUUUUAAUAUGUGUCAUGAAUAAAGUUGUUUUUGAAAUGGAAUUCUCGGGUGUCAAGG` has a log2 enrichment of 0.276.
The log2 enrichment of `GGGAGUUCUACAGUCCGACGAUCGUCCUGUGCUACACAUCGUAUGUACCGAAUCGGGGUUUUUGGGUUUUUGGUUUUUGGGGAAAGUAUUAUGUUACGCCGUUCGGAUCUGCAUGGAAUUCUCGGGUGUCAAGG` is reported as -0.927.
For `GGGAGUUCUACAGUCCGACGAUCCUCAAGUCCUGUGCUACACAUCGUAUGUACCGAAUCGGGGUUGGUUGGUUGGGGAAAGUAUUAUGUUACGCCGUUCGGAUCUGCACUUCCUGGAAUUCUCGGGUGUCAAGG`, the log2 enrichment was 0.148.
With `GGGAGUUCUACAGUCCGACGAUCCAAGUCCUGUGCUACACAUCGUAUGUACCGAAUCGGGUUUUUGGGUUUGGGAGGGAAAGUAUUAUGUUACGCCGUUCGGAUCUGCACUUCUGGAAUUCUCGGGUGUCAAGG` the log2 enrichment was -0.21.
The log2 enrichment of `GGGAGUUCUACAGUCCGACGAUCCAAGUCCUGUGCUACACAUCGUAUGUACCGAAUCGGCCCCGGCCCCGGGCCCCGGAAAGUAUUAUGUUACGCCGUUCGGAUCUGCACUUCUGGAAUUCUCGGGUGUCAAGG` is reported as -1.22.

Set 5 — read-out: enzyme activity; mode: inhibitor; tested at: 20 µM
Target: Replicase polyprotein 1ab, polymerase (rep, Severe acute respiratory syndrome coronavirus 2, UniProt P0DTD1)
`C[C@H]1COC2=C1C(=O)C(=O)c1c2ccc2c1CCCC2(C)C` gave an inhibition of 13.4%.
With `OC[C@H]1O[C@H](O[C@]2(CCl)O[C@H](CCl)[C@@H](O)[C@@H]2O)[C@H](O)[C@@H](O)[C@H]1Cl` the inhibition was -3.5%.
For `N#Cc1cnc2cnc(NCc3cccnc3)cc2c1Nc1ccc(F)c(Cl)c1`, the inhibition was 9.3%.
`O=C(Nc1ccc(OC(F)(F)F)cc1)c1sccc1NCc1ccnc2ccccc12` gave an inhibition of -3.72%.
`C[N+]1(C)CCc2cc3c(cc2[C@H]1[C@@H]1OC(=O)c2c1ccc1c2OCO1)OCO3` has an inhibition of -18.9%.
With `CC[C@@]1(O)C(=O)OCc2c1cc1n(c2=O)Cc2cc3c(CN(C)C)c(O)ccc3nc2-1` the inhibition was 5.14%.
With `COc1ccc2c3c([nH]c2c1)[C@H](CC(C)C)N1C(=O)[C@H](CCC(=O)OC(C)(C)C)NC(=O)[C@@H]1C3` the inhibition was -5.07%.
`NC(N)=Nc1nc(CSCC/C(N)=N/S(N)(=O)=O)cs1` gave an inhibition of 0.22%.
`CCc1cc(C(N)=S)ccn1` gave an inhibition of 7.42%.
With `O=P(O)(O)C(O)(Cc1cccnc1)P(=O)(O)O` the inhibition was -5.12%.
`CC(C)[C@H](NS(=O)(=O)c1ccc(-c2ccc(Br)cc2)cc1)C(=O)O` gave an inhibition of -1.25%.
`O=C(Nc1ccc(S(=O)(=O)C(F)(F)F)cc1)C1=CCN(c2ncccc2C(F)(F)F)CC1` has an inhibition of 1.76%.
The inhibition of `O=C(CBr)N1CC([N+](=O)[O-])([N+](=O)[O-])C1` is reported as -2.58%.
For `CC1=N[C@H](C(=O)O)CCN1`, the inhibition was 1.1%.
`CN1CCCC1CCSc1ccc(O)cc1` (stereo not drawn) gave an inhibition of -6.44%.
The inhibition of `O=S(=O)(O)c1ccc(-c2c3nc(c(-c4ccc(S(=O)(=O)O)cc4)c4ccc([nH]4)c(-c4ccc(S(=O)(=O)O)cc4)c4nc(c(-c5ccc(S(=O)(=O)O)cc5)c5ccc2[nH]5)C=C4)C=C3)cc1` is reported as 31.3%.
With `Oc1cccc(O)c1` the inhibition was 0.28%.
`Cn1c(C#N)ccc1-c1ccc2c(c1)C(C)(C)OC(=S)N2` has an inhibition of -3.87%.
For `COc1cc(C(=S)N2CCOCC2)ccc1O`, the inhibition was -12%.
The inhibition of `O=C(O)c1cc(C(=O)O)c(C(=O)N(Cc2cccc(Oc3ccccc3)c2)[C@H]2CCCc3ccccc32)cc1C(=O)O` is reported as 1.1%.
For `CCn1cc(-c2cccc(C(F)(F)F)c2)c2sc(C(=N)NC3CCS(=O)(=O)CC3)cc2c1=O`, the inhibition was -6.89%.
`CCN[C@H]1CN(CCCOC)S(=O)(=O)c2sc(S(N)(=O)=O)cc21` gave an inhibition of -3.13%.
With `CC(=O)N[C@@H](CC(=O)N[C@@H](CCC(=O)O)C(=O)O)C(=O)O` the inhibition was 0.33%.
`O=C(O)CCCNC(=O)c1cccnc1` gave an inhibition of 2.71%.
`CC(C)=CCC/C(C)=C/CC/C(C)=C/CC/C(C)=C/CC1=C(C)C(=O)c2ccccc2C1=O` has an inhibition of -4.54%.

Set 6 — method: protein-binding microarray; form: double-stranded DNA, one strand shown; matrix: in vitro; tested at: not given; reading: higher = stronger binding
Target: Myc proto-oncogene protein, bHLH-zipper, MAX partner unstated (MYC, Homo sapiens, UniProt P01106, residues 368-449)
Sequence of UniProt P01106 (368-449, looked up): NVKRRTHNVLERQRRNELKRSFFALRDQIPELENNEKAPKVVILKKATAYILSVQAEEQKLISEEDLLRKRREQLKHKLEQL
Setting: k-mer, scored over probes, only values ≥0.25
`CCAACACG` has an E-score of 0.306.
`CACGCCTA` has an E-score of 0.344.
The E-score of `ATAGCATG` is reported as 0.351.
The E-score of `ATGAGGGC` is reported as 0.378.
For `CGTGGGCC`, the E-score was 0.319.
For `ATGGTCTC`, the E-score was 0.263.
For `CGTGACTA`, the E-score was 0.367.
With `ACATGTGC` the E-score was 0.478.

For quick reference, copied from above (set 5):
The inhibition of `O=C(O)c1cc(C(=O)O)c(C(=O)N(Cc2cccc(Oc3ccccc3)c2)[C@H]2CCCc3ccccc32)cc1C(=O)O` is reported as 1.1%.
With `CC[C@@]1(O)C(=O)OCc2c1cc1n(c2=O)Cc2cc3c(CN(C)C)c(O)ccc3nc2-1` the inhibition was 5.14%.
`CC(C)[C@H](NS(=O)(=O)c1ccc(-c2ccc(Br)cc2)cc1)C(=O)O` gave an inhibition of -1.25%.
For `N#Cc1cnc2cnc(NCc3cccnc3)cc2c1Nc1ccc(F)c(Cl)c1`, the inhibition was 9.3%.
`C[C@H]1COC2=C1C(=O)C(=O)c1c2ccc2c1CCCC2(C)C` gave an inhibition of 13.4%.
With `CC(=O)N[C@@H](CC(=O)N[C@@H](CCC(=O)O)C(=O)O)C(=O)O` the inhibition was 0.33%.
`CC(C)=CCC/C(C)=C/CC/C(C)=C/CC/C(C)=C/CC1=C(C)C(=O)c2ccccc2C1=O` has an inhibition of -4.54%.
`C[N+]1(C)CCc2cc3c(cc2[C@H]1[C@@H]1OC(=O)c2c1ccc1c2OCO1)OCO3` has an inhibition of -18.9%.
